# Results gathered from unrelated publications.
# Protocols differ between the studies behind these lines. “And” joins repeats or separate records; there may be more than shown. ± marks the error that the study gave.
SMILES,tested on,test,test system,setting,scale,quantity,result
Nc1ccn([C@H]2C[C@H](O)[C@@H](COP(=O)(O)OP(=O)(O)OP(=O)(O)O)O2)c(=O)n1,,"binding, equilibrium dialysis LC-MS",,"5 µM, thermostabilized A2AR-BRIL construct","reference: no-protein control, direction not given",z-scored log2 fold change,-0.414
CCCc1nn(C)c2c(=O)[nH]c(-c3cc(S(=O)(=O)N4CCN(C)CC4)ccc3OCC)nc12,Cryptosporidium parvum,"parasite growth, immunofluorescence imaging","HCT-8, Iowa",2 µM,,inhibition,-17.2% and 24.2%
CCn1c(=O)c(-c2cc[nH]n2)cc2c(C)nc(N)nc21,Coxsackievirus B4,"viral replication, RT-qPCR","HeLa, CVB4-5","concentration not given, 20 h",,viral RNA level,decreased
CC(=Nc1ccc(N=Cc2cnccn2)cc1)N(C)C,Necator americanus,,infected hamster,"oral, single dose",,curative dose,25 mg/kg
COC(=O)[C@@H](CCSC)NCc1cc2ccccc2nc1SC,Pseudomonas aeruginosa,,,"64 µg/mL, added: pentamidine 100 µM",reference: control,growth,65.4%
CN[C@H](CC(C)C)C(=O)N[C@H]1C(=O)N[C@@H](CC(N)=O)C(=O)N[C@H]2C(=O)N[C@H]3C(=O)N[C@H](C(=O)N[C@H](C(=O)O)c4cc(O)cc(O)c4-c4cc3ccc4O)[C@H](O)c3ccc(c(Cl)c3)Oc3cc2cc(c3O[C@@H]2O[C@H](CO)[C@@H](O)[C@H](O)[C@H]2O[C@H]2C[C@](C)(N)[C@H](O)[C@H](C)O2)Oc2ccc(cc2Cl)[C@H]1O,Staphylococcus aureus,,"MRSA, 10 isolates",pH 8.5,,MIC50,2 µg/mL
Nc1nc(-c2ccccc2)nc2[nH]nc(Nc3ccc(C(F)(F)F)cc3)c12,coxsackievirus B3,,"31-1-93, NMRI mice, CVB3 chronic myocarditis","oral, 100 mg/kg twice daily, day 21, dosed days 3 to 10, score scale 0 to 7",direction not given,clinical score,0.4
CCCCCCc1ccc(Oc2ccccc2Cl)c(O)c1,Mycobacterium tuberculosis,,"mouse, rapid infection model, spleen","25 mg/kg twice daily, SMEDDS formulation, added: rifampicin 10 mg/kg",reference: rifampicin alone,additional CFU reduction,1.4 log10 CFU
CC1(C)S[C@@H]2[C@H](NC(=O)[C@H](N)c3ccccc3)C(=O)N2[C@H]1C(=O)O,Salmonella enterica serovar Derby,broth microdilution,clinical isolate RKI-No 436/14,,,MIC,> 16 µg/mL
CO[C@H]1/C=C/O[C@@]2(C)Oc3c(C)c(O)c4c(O)c(c(/C=N/N5CCN(C)CC5)c(O)c4c3C2=O)NC(=O)/C(C)=C\C=C\[C@H](C)[C@H](O)[C@@H](C)[C@@H](O)[C@@H](C)[C@H](OC(C)=O)[C@@H]1C,Mycobacterium tuberculosis,,"Mus musculus, lung","10 mg/kg, suspended in PBS, monotherapy",,bacterial load reduction,~0.5 log10 CFU
C=CC(=O)N1CC/C(=C\c2ccc(F)c([N+](=O)[O-])c2)C(=O)/C(=C/c2ccc(F)c([N+](=O)[O-])c2)C1,human alphaherpesvirus 1,"viral replication, GFP signal","K26 GFP, 3D skin equivalent, air-liquid",48 h,,IC50,150 nM
O=c1c(-c2nc3ccccc3s2)cc2c(n1NS(=O)(=O)c1ccccc1)CCCC2,Coxsackievirus B4,"viral replication, plaque reduction",BGM cells,non-toxic concentration,,reduction,50%
Cc1ccc(NC(=O)N2Cc3[nH]cnc3C[C@H]2c2nc(-c3ccc4c(c3)OCO4)no2)cc1,Caenorhabditis elegans,,N2,50 µM,,mean lifespan,21.1 days
CC1=C[C@H](O/C=C2/C(=O)O[C@@H]3c4ccccc4C[C@H]23)OC1=O (racemic),Striga hermonthica,stimulant,seeds,10 nM,,germination rate,54.2% and 82.6% and 69.2% and 87.5% and 40% and 75% and 75.9%
CC(C)Nc1nc2cc(Cl)c(Cl)cc2n1[C@H]1O[C@@H](CO)[C@H](O)[C@@H]1O,human betaherpesvirus 5,,human CMV patients,"dose not given, week 8, AURORA exposure-response",,confirmed CMV viremia clearance,74.8%
COc1ccnc(C(N)=O)c1O,Daphnia magna,"immobilisation, semi-static water exposure",,48 h,,EC50,> 10 µg/mL
N=C(N)c1ccc(OCc2cc(Br)cc(COc3ccc(C(=N)N)cc3)c2)cc1,Escherichia coli,checkerboard,BW25113,"concentration not given, lowest-FICI combination, added: rifampicin",,MIC of compound in combination,12.5 µg/mL
CC(C)c1cnn2c(NCc3ccccc3-n3cccn3)nc(OC3CCCNC3)nc12 (stereo not shown),human alphaherpesvirus 1,"viral replication, GFP live imaging","primary human keratinocytes, K26 GFP-expressing",,,IC50,1560 nM
CC(C)n1ncc2c(C(=O)NCC3(C)CNC3)cc(C3CC3)nc21,Enterovirus D68,viral replication,"RD, US/MO/14-18947",100 nM,,plaque reduction,7.43% and 0%
N[C@@H](CCO)C(=O)O,Cryptosporidium parvum,image-based,HCT-8,"1 mM, 24 h post-infection",reference: PBS,relative parasite number,1.02 ± 0.084
Cc1ncc(C[n+]2csc(CCOP(=O)(O)O)c2C)c(N)n1,,"binding, equilibrium dialysis LC-MS",,"5 µM, thermostabilized A2AR-BRIL construct","reference: no-protein control, direction not given",z-scored log2 fold change,0.303
COc1ccc(-c2nc(N3CCOCC3)c3sc(CN(C)c4ncc(C(=O)NO)cn4)cc3n2)cn1,human alphaherpesvirus 1,,"K26 GFP, 3D skin equivalent, submerged",,reference: CC50 over IC50,selectivity index,> 6.9
Cc1cc(OC(C)C)ccc1C(=O)C(C)(C)NC(=O)c1sccc1C,Botrytis cinerea,appressorium formation,B05.10,10 µg/mL,,inhibition,100%
Cc1cccc(C)c1N(CC(=O)Nc1ccc(-c2ncon2)cc1)C(=O)C1CCS(=O)(=O)CC1,human alphaherpesvirus 1,live-cell GFP imaging,"primary human keratinocytes, K26 GFP",,,IC50,240 nM
CC(C)CC(=O)C(=O)[O-].[Na+],Cryptosporidium parvum,image-based,HCT-8,"1 mM, 24 h post-infection",reference: PBS,relative parasite number,0.86 ± 0.246
O=C(Nc1ccc([N+](=O)[O-])cc1Cl)c1cc(Cl)ccc1O,human adenovirus C5 reporter virus,,A549,"concentration not given, 72 h post-infection",,viral progeny production,no effect
Cc1nc(N(C)C(=O)Cc2ccc(-c3ccccn3)cc2)sc1S(N)(=O)=O,human alphaherpesvirus 1,"viral replication, GFP signal","K26 GFP, 3D skin equivalent, air-liquid",48 h,,IC50,190 nM
COC(=O)[C@H](Cc1c[nH]c2ccccc12)NCc1cc2ccccc2nc1SC,Pseudomonas aeruginosa,,,"2 µg/mL, without pentamidine",reference: control,growth,100%
N=C(N)c1ccc(OCCCCCOc2ccc(C(=N)N)cc2)cc1,Escherichia coli,,BW25113,"concentration not given, lowest-FICI combination, added: erythromycin",,MIC in combination,50 µg/mL
O=C(Nc1ccc([N+](=O)[O-])cc1Cl)c1cc(Cl)ccc1O,human alphaherpesvirus 1,,"primary human keratinocytes, K26 GFP",,reference: CC50 over IC50,selectivity index,2.47
Cc1nc(NC(=O)N2CCC[C@H]2C(N)=O)sc1-c1ccnc(C(C)(C)C(F)(F)F)c1,NLRP3 inflammasome (mouse),,mouse BMDM,10 µM,,inhibition,-15.5%
